Measured values collected from several papers.
Lines come from different studies, so protocols differ. Values joined by “and” are separate records of one study, mostly repeats; a detail may differ. ± marks the error that the study gave. Ends that are not written are not given here.

| Molecule | target or system | test | system | setting | how to read | quantity | value |
| --- | --- | --- | --- | --- | --- | --- | --- |
| QPLRKLCILHRNPGRCYQKIPAFYYNQKKKQCEGFTWSGCGGNSNRFKTIEECRRTCIRK (dendrotoxin I; ends and bridges not checked; cysteine pairing not given here; sequence looked up) | maxi-KCa channel, rat muscle | channel block, planar bilayer single-channel | – | 460 nM, added: BPTI | – | inter-DTX periods ended by substate | 95.6% |
| Oc1ccc2[nH]cc(CCCCN3CC=C(c4ccccc4)CC3)c2c1 | HeLa | Ebola VLP entry | – | – | – | IC50 | 15300 nM |
| GsMTx4 | stretch-activated cation channel, rat | ion current, outside-out patch clamp | rat astrocytes | dose not given, holding -50 mV, 11 pressure steps | – | SAC current during perfusion | 0.17 ± 0.02 pA |
| CN(C)CCCN1c2ccccc2Sc2ccc(Cl)cc21 | A2780cis | cell growth or viability, neutral red | – | dark | – | IC50 | 112000 nM |
| CCc1c(C(=O)C(N)=O)c2c(OCC(=O)O)cccc2n1Cc1ccccc1 | C2C12 | – | – | 10 µM, added: MP venom | relative to: venom alone | viability difference | 31.6% |
| Cc1cn([C@H]2C[C@H](N=[N+]=[N-])[C@@H](CO)O2)c(=O)[nH]c1=O | HIV-1 | viral replication | human monocytes/macrophages, subtype B ADA, CCR5-tropic | – | – | EC50 | 2 nM |
| Cn1c(Cn2ccc(C(F)(F)F)c(Oc3cc(Cl)cc(C#N)c3)c2=O)n[nH]c1=O | HIV-1 | viral replication, single-round infection | RT mutant V106A/F227L/L234I | – | – | EC50 | > 100 nM |
| Nc1cc(N2CCCC(C(=O)c3ccc(Oc4ccccc4)cc3)C2)ncn1 (stereo not shown) | Lassa mammarenavirus | viral replication | Huh-7 | 10 µM, 72 h | – | remaining activity | 47% |
| TPINLVRDL | human PBMC CD8+ T cells | T cell response | peptide | – | – | positive donors | 1 donors |
| CC[C@H](C)[C@H](NC(=O)[C@H](Cc1ccc(O)cc1)NC(=O)[C@H](Cc1c[nH]c2ccccc12)NC(=O)[C@H](CC(C)C)NC(C)=O)C(=O)N[C@@H](CCCCN)C(N)=O | – | DSC | SOPC/cholesterol 7/3 bilayers | 10 mol%, pH 7.40 | – | transition enthalpy | 1.1 kcal/mol |
| Cc1noc2c(NC3CCOCC3)cc(-c3cccc(C(F)(F)F)c3)nc12 | SARS-CoV-2 | cytopathic effect | USA_WA1/2020 | round 1, 5-point | – | maximum response | 41.7% |
| Cc1nc2n(n1)CC(=O)N[C@@H](C(C)C)CN(C(=O)CCC(F)(F)F)CC(=O)N[C@@H](CC(C)C)c1nc(cs1)C(=O)N[C@H]2Cc1ccccc1 | Lassa mammarenavirus | viral replication | Huh-7 | 10 µM, 72 h | – | remaining activity | 107% |
| Cc1ccc(Nc2ccnc(N3CCCC3C(=O)NCCCc3ccccc3)n2)cc1 (stereo not shown) | SARS-CoV-2 | cytopathic effect | USA_WA1/2020 | round 1, 5-point | – | efficacy | 39.9% |
| VTLADAGFIKQYGDC | human CD4 T cells | AIM | peptide | – | – | responding donors | 17% |
| Cc1oc(-c2ccccc2Cl)cc1C(=O)NCCc1c[nH]cn1 | Lassa mammarenavirus | viral replication | Huh-7 | 10 µM, 72 h | – | remaining activity | 23% |
| CCC1CCCCN1CCCNC(=O)c1sc2nc(C)cc(C)c2c1-n1cccc1 (stereo not shown) | SARS-CoV-2 | cytopathic effect, cell-based CPE | USA_WA1/2020 | – | – | AC50 | 14100 nM |
| Cc1cc(/C=C/C#N)cc(C)c1Nc1ncc2ncn(-c3c(C)cc(/C=C/C#N)cc3C)c2n1 | HIV-1 | viral replication, single-round infection | RT mutant V106A | – | – | EC50 | 58.8 ± 6 nM |
| CCCC(=O)OCSc1ccccc1C(=O)NCCC(N)=O | HIV-1 | viral replication | human PBMC, subtype B 92BR014, dual-tropic clinical isolate | – | – | EC50 | 3410 ± 3260 nM |
| KPFERDISTEI | – | AIM | peptide, CD8+ T cells from PBMC, human donors | HLA-B*07:02 restricted, unit not given | relative to: positive over tested donors | frequency of responding donors | 40 |
| COc1ccc(CCNC(=O)c2cc(Nc3ccccc3)nc3ccccc23)cc1OC | SARS-CoV-2 | cytopathic effect | USA_WA1/2020 | retest, 8-point, duplicates | – | maximum response | 2.56% |

| Molecule | target or system | test | system | setting | how to read | quantity | value |
| --- | --- | --- | --- | --- | --- | --- | --- |
| ASRELKVTF | – | AIM | peptide, CD8+ T cells from PBMC, human donors | HLA-A*30:01 restricted, unit not given | relative to: positive over tested donors | frequency of responding donors | 100 |
| Cc1cc(/C=C/C#N)cc(C)c1Nc1nc(Nc2ccc3cc(C#N)ccc3c2)ncc1N | HIV-1 | viral replication, single-round infection | RT mutant G190A | – | – | EC50 | ≤ 2.1 nM |
| Cc1ccc([N+](=O)[O-])[c]2c1[O][Hg]2 | HeLa | Ebola VLP entry | – | – | – | maximal inhibition | 96% |
| Cc1ccc(Cl)cc1N1CCN(CCCNc2ncnc3onc(-c4ccc(F)cc4)c23)CC1 | SARS-CoV-2 | cytopathic effect | USA_WA1/2020 | round 1, 5-point | – | efficacy | 72.1% |
| SFIEDLLFNKVTLAD | human CD4 T cells | AIM | peptide | – | – | responding donors | 17% |
| CNC(=O)[C@@H](NC(=O)[C@H](CC(C)C)[C@H](O)C(=O)NO)C(C)(C)C | Daboia russelii venom proteases (SVMP) | protease activity, inhibitor | KA population | 1 µM, added: azocasein substrate | relative to: venom alone | remaining activity | 83.4% and 85.7% and 87.8% |
| COc1ccccc1-c1cccc(CN2CCCC(C(=O)NCc3ccc(F)cc3)C2)c1 (stereo not shown) | SARS-CoV-2 | cytopathic effect | USA_WA1/2020 | round 1, 5-point | – | efficacy | 70.2% |
| QPYRVVVLSF | – | AIM | peptide, CD8+ T cells from PBMC, human donors | HLA-B*07:02 restricted, unit not given | relative to: positive over tested donors | frequency of responding donors | 25 |
| CN1CCCC2(C1)CN(Cc1cccnc1)c1ccc(C(=O)NCC3CCCCC3)cc12 (stereo not shown) | SARS-CoV-2 | cytopathic effect | USA_WA1/2020 | retest, 8-point, duplicates | – | maximum response | 97.4% |
| CC[C@H](C)[C@H](NC(=O)[C@H](C)NC(=O)[C@H](CO)NC(=O)[C@H](CC(=O)O)NC(=O)[C@H](CO)NC(=O)[C@H](Cc1ccccc1)NC(=O)[C@H](CS)NC(=O)[C@H](CC(=O)O)NC(=O)[C@H](Cc1ccccc1)NC(=O)[C@H](Cc1ccc(O)cc1)NC(=O)[C@H](Cc1ccc(O)cc1)NC(=O)[C@H](CC(C)C)NC(=O)[C@H](Cc1c[nH]cn1)NC(=O)[C@@H](NC(=O)[C@H](CC(C)C)NC(=O)[C@H](CCC(N)=O)NC(=O)[C@H](CC(=O)O)NC(=O)[C@H](C)NC(=O)[C@H](CC(C)C)NC(=O)[C@@H](N)CCC(=O)O)[C@@H](C)CC)C(=O)N[C@@H](CCCNC(=N)N)C(=O)N[C@@H](CCCCN)C(=O)N[C@@H](C)C(=O)N[C@@H](CC(C)C)C(=O)N[C@@H](CC(C)C)C(=O)NCC(=O)N[C@@H](Cc1c[nH]cn1)C(=O)N[C@H](C(=O)N[C@H](C(=O)N[C@@H](CO)C(=O)N1CCC[C@H]1C(=O)N[C@@H](CCCNC(=N)N)C(=O)N[C@@H](CS)C(=O)N[C@@H](CCC(=O)O)C(=O)N[C@@H](Cc1ccc(O)cc1)C(=O)N[C@@H](CCC(N)=O)C(=O)N[C@@H](C)C(=O)NCC(=O)N[C@@H](Cc1c[nH]cn1)C(=O)N[C@@H](CC(N)=O)C(=O)N[C@@H](CCCCN)C(=O)N[C@H](C(=O)O)C(C)C)C(C)C)[C@@H](C)CC | human Cul5 (1-384) GST fusion | GST pull-down | – | 20 µM, added: Zn(NO3)2 40 µM | relative to: no zinc | increase in binding | 8.4 fold |
| LLEQWNLVIGFLFLT | human CD4 T cells | AIM | peptide | – | – | responding donors | 13% |
| Nc1ncnc2c([C@@H]3N[C@H](CO)[C@@H](O)[C@H]3O)c[nH]c12 | Marburg virus | antibody staining | HeLa, Musoke | 25 µM | – | antigen-positive cells | 0.5% and 3% |
| O=C1Nc2ccc(Cl)cc2[C@@](C#CC2CC2)(C(F)(F)F)O1 | HIV-1 | viral replication, single-round infection | RT mutant L234I | – | – | EC50 | 0.8 ± 0.1 nM |
| NC(=O)CCNC(=O)c1ccccc1S | HIV-1 | viral replication | human PBMC, subtype C 93MW959, CCR5-tropic clinical isolate | – | – | EC50 | 4640 ± 240 nM |
| Cc1nc2n(n1)CC(=O)N[C@@H](C(C)C)CNCC(=O)N[C@@H](CC(C)C)c1nc(cs1)C(=O)N[C@H]2Cc1ccccc1 | Lassa mammarenavirus | viral replication | Huh-7 | 10 µM, 72 h | – | remaining activity | 91% |
| LNTDHSSSSDNIALL | human CD4 T cells | AIM | peptide | – | – | responding donors | 8% |
| Cc1cc(/C=C/C#N)cc(C)c1-n1cnc2cnc(Nc3ccc(/C=C/C#N)cc3)nc21 | HIV-1 | viral replication, single-round infection | RT mutant P236L | – | – | EC50 | ≤ 2.1 nM |
| COP(=O)(OC)OC=C(Cl)Cl | rat CYP3A | midazolam 4-hydroxylation | liver microsomes | concentration not given | – | Vmax | 0.53 ± 0.07 nmol/min/mg protein |
| CC(Nc1nc(N2CCN(CCN)CC2)nc2ccccc12)c1ccccc1 (stereo not shown) | SARS-CoV-2 | cytopathic effect | USA_WA1/2020 | retest 8-point | – | maximum response | 78.3% |
| Cc1cc(/C=C/C#N)cc(C)c1Nc1ccnc(Nc2ccc(C#N)cc2)n1 | HIV-1 | viral replication, single-round infection | RT mutant K101P | – | – | EC50 | 6.2 ± 1.6 nM |

Excerpt of the above:
| Molecule | target or system | test | system | setting | how to read | quantity | value |
| --- | --- | --- | --- | --- | --- | --- | --- |
| GsMTx4 | stretch-activated cation channel, rat | ion current, outside-out patch clamp | rat astrocytes | dose not given, holding -50 mV, 11 pressure steps | – | SAC current during perfusion | 0.17 ± 0.02 pA |
| CN(C)CCCN1c2ccccc2Sc2ccc(Cl)cc21 | A2780cis | cell growth or viability, neutral red | – | dark | – | IC50 | 112000 nM |
| CCc1c(C(=O)C(N)=O)c2c(OCC(=O)O)cccc2n1Cc1ccccc1 | C2C12 | – | – | 10 µM, added: MP venom | relative to: venom alone | viability difference | 31.6% |
| Cc1cn([C@H]2C[C@H](N=[N+]=[N-])[C@@H](CO)O2)c(=O)[nH]c1=O | HIV-1 | viral replication | human monocytes/macrophages, subtype B ADA, CCR5-tropic | – | – | EC50 | 2 nM |
| Cn1c(Cn2ccc(C(F)(F)F)c(Oc3cc(Cl)cc(C#N)c3)c2=O)n[nH]c1=O | HIV-1 | viral replication, single-round infection | RT mutant V106A/F227L/L234I | – | – | EC50 | > 100 nM |
| Nc1cc(N2CCCC(C(=O)c3ccc(Oc4ccccc4)cc3)C2)ncn1 (stereo not shown) | Lassa mammarenavirus | viral replication | Huh-7 | 10 µM, 72 h | – | remaining activity | 47% |
| TPINLVRDL | human PBMC CD8+ T cells | T cell response | peptide | – | – | positive donors | 1 donors |
